# Measurements from different studies.
# Protocols differ between the studies behind these lines. Several values in a cell are separate wells, animals, samples, runs or records. ± marks the error that the study gave.
# PAK2: Serine/threonine-protein kinase PAK 2 (PAK2, Homo sapiens, UniProt Q13177)
# Sequence of UniProt D0VWV4 (whole entry, looked up): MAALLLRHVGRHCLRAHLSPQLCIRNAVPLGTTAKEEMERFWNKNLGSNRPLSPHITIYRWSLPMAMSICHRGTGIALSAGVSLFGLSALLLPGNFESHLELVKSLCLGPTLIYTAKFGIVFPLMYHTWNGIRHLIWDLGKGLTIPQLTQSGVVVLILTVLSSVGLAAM
# Sequence of UniProt Q007T0 (whole entry, looked up): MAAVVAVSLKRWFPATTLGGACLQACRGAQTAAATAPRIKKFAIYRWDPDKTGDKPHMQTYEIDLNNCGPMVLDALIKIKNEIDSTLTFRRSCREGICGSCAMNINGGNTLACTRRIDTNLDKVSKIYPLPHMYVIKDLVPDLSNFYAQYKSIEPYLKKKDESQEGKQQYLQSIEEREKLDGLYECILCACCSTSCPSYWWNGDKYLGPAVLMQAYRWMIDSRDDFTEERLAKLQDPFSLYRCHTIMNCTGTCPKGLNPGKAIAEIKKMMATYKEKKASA
# Sequence of UniProt A5GZW8 (whole entry, looked up): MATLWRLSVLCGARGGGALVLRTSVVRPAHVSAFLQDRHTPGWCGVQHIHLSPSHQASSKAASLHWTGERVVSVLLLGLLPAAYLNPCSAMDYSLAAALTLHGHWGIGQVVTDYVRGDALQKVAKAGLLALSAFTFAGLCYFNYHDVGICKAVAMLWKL
# Sequence of UniProt Q13177 (whole entry, looked up): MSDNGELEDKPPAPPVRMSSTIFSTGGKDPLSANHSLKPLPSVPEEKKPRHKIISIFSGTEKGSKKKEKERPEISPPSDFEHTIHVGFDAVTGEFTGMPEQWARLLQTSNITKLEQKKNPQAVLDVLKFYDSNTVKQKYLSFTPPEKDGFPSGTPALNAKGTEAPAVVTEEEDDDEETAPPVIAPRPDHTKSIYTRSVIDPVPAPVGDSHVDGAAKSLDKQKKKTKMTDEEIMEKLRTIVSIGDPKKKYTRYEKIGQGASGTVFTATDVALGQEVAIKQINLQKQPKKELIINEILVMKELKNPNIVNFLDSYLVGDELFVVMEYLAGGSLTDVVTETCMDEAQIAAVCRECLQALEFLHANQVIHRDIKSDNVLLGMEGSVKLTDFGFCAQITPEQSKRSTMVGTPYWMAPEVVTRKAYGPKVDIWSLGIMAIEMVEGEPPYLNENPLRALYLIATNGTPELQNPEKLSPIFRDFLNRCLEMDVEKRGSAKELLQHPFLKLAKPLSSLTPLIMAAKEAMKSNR
# Sequence of UniProt Q8I2X3 (whole entry, looked up): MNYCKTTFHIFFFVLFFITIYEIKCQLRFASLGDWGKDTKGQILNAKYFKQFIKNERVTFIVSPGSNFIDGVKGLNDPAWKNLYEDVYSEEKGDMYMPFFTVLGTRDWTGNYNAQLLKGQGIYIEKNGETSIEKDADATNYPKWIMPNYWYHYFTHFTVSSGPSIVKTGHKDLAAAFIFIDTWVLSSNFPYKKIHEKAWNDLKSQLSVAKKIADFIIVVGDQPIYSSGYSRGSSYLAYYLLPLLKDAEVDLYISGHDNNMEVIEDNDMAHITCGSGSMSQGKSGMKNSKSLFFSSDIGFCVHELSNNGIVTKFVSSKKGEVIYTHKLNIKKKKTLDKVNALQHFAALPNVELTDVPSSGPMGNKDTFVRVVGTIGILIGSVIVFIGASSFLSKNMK
# Sequence of UniProt Q8VDG7 (whole entry, looked up): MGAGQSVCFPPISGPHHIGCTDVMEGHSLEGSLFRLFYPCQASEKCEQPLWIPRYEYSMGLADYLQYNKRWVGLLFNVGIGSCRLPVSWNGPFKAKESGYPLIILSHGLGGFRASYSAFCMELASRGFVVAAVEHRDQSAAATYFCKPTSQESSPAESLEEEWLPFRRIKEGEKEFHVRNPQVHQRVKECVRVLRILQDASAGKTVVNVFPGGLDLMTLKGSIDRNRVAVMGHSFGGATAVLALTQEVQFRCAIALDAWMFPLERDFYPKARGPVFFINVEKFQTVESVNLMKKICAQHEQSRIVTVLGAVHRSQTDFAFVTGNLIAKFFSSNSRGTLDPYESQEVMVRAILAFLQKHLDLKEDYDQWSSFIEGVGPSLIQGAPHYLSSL
# Sequence of UniProt P42336 (whole entry, unmodified, looked up): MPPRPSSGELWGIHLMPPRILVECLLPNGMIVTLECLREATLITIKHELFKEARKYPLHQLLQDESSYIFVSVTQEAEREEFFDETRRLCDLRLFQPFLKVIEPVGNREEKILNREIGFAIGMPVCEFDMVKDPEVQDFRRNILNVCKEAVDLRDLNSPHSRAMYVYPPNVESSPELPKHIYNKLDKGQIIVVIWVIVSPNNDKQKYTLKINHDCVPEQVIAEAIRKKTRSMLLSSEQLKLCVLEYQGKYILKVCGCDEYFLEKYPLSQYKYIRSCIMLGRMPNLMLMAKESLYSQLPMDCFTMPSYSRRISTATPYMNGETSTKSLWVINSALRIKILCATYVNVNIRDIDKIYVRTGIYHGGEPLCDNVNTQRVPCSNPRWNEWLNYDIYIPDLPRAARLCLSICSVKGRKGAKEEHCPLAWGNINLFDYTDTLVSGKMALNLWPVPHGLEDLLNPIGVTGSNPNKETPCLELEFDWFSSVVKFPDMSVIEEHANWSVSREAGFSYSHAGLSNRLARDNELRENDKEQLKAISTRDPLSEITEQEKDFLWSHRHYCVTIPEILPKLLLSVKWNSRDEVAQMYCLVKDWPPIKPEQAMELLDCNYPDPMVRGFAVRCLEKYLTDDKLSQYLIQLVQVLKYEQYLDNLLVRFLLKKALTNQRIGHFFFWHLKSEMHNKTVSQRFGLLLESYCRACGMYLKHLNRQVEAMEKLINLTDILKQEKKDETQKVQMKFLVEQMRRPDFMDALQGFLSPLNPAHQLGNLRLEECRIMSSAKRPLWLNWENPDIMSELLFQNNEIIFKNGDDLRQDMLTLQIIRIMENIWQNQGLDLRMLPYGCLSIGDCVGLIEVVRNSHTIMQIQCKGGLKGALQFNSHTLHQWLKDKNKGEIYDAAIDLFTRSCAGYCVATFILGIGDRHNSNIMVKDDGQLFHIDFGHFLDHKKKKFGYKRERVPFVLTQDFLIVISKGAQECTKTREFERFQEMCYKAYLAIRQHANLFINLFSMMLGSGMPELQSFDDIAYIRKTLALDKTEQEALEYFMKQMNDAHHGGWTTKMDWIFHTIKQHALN
# Sequence of UniProt P08581 (whole entry, looked up): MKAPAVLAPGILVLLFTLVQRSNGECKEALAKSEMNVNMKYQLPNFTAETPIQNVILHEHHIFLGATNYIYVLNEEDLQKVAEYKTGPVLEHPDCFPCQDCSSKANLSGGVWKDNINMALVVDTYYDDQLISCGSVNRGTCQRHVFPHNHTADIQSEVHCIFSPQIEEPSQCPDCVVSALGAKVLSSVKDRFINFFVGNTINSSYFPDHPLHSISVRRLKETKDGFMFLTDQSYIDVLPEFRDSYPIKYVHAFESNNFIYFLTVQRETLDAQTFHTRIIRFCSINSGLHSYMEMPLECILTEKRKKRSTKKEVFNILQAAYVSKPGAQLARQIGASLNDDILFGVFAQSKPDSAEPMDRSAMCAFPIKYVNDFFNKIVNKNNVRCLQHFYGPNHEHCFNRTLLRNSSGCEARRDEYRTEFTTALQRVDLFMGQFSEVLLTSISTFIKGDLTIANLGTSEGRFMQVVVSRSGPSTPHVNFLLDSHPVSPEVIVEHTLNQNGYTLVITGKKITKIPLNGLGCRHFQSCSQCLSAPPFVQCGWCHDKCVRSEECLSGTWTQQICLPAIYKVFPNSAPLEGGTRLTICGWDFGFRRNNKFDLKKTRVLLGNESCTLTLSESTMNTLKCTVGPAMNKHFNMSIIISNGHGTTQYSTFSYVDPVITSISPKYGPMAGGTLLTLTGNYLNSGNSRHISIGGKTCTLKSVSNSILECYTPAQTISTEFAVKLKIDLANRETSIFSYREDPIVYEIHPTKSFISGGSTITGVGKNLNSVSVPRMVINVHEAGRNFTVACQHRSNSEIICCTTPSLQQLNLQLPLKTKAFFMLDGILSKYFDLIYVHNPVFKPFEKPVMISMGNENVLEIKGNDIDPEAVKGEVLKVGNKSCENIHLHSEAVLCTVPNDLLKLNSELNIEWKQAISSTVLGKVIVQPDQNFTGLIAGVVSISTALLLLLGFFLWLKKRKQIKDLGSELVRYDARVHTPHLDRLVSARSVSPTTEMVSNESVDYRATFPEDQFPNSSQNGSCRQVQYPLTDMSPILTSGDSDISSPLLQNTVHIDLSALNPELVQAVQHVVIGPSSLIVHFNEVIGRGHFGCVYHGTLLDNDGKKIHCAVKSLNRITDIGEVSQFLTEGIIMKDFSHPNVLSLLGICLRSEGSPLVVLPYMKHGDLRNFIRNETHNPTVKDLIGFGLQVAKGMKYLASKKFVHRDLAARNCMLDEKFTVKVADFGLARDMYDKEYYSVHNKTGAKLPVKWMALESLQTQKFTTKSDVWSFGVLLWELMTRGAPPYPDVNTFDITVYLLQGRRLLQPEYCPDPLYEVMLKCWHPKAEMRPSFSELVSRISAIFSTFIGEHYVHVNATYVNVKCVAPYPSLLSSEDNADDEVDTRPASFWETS
# Sequence of UniProt Q61206 (whole entry, looked up): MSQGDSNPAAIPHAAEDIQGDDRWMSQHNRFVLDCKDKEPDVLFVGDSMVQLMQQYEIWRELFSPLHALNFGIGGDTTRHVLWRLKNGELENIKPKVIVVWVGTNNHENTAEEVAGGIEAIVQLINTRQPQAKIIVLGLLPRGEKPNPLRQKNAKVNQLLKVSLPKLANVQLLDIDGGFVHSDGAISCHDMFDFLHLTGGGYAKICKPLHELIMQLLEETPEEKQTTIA
# Sequence of UniProt Q9Y282 (whole entry, looked up): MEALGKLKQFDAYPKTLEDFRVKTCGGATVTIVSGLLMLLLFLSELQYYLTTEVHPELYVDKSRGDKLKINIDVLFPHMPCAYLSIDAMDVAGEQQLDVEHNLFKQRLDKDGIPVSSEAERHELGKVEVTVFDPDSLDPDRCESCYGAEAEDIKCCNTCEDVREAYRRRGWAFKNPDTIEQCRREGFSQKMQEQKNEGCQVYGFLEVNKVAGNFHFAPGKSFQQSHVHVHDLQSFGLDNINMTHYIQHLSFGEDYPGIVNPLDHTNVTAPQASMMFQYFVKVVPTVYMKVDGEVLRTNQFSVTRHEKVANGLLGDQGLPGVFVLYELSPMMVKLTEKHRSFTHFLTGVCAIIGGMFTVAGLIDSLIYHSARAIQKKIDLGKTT
SMILES,target or system,test,system,conditions,how to read,quantity,value
CC(C)CC(O)(CC(C)C)c1cn(C(=O)N2CCCC2)nn1,"Diacylglycerol lipase-beta (Mus musculus, UniProt Q91WC9)",,"mouse, brain",concentration not given,relative to: vehicle over compound,activity-based probe labelling ratio,1.56
COc1ccc2cc1Oc1cc3c(cc1OC)CCN(C)C3Cc1ccc(cc1)Oc1c(O)c(OC)cc3c1C(C2)N(C)CC3 (stereo not drawn),"Glideosome-associated protein 50 (GAP50, Plasmodium falciparum, UniProt Q8I2X3)","binding, surface plasmon resonance",,1:1 binding model,,kon,575 M⁻¹ s⁻¹
O=C1NC(=O)c2c1c1cc(F)c[n+]3c1c1c2c2cc(O)ccc2[n]1[Ru-4]312([N]=C=S)[S+]3CC[S+]1CC[S+]2CC3 (stereo not drawn),"Serine/threonine-protein kinase MARK2 (MARK2, Homo sapiens, UniProt Q7KZI7)",enzyme activity,,"100 nM, human enzyme, added: 10 µM ATP",relative to: untreated,remaining activity,7%
CS(C)(=O)=Nc1ccc(-c2ccc(-c3nc4cc(O[C@@H]5CO[C@H]6[C@@H]5OC[C@H]6O)[nH]c4cc3F)cc2)cc1,"Cyclin-dependent kinase 2, with cyclin E (CDK2, Homo sapiens, UniProt P24941)","enzyme activity, inhibitor",,10 µM,,inhibition,-10%
N[C@H](C(=O)N1CCCC1)C1CCN(c2nccc3c(-c4ncc(Cl)cc4Cl)cccc23)CC1,"Histamine H3 receptor (HRH3, Homo sapiens, UniProt Q9Y5N1)","functional response, agonist",,10 µM,,response,33%
CCN(N=Cc1cnc2ccc(Br)cn12)S(=O)(=O)c1cc([N+](=O)[O-])ccc1C,"Phosphatidylinositol 4,5-bisphosphate 3-kinase catalytic subunit alpha isoform (PIK3CA, Homo sapiens, UniProt P42336, S773D)",luminescence,,,relative to: mutant over wild type,IC50 fold change,2
O=C(N1CCCCC1)n1ccnn1,"Platelet-activating factor acetylhydrolase IB subunit alpha2 (Mus musculus, UniProt Q61206)","enzyme activity, inhibitor, competitive ABPP-SILAC, item: Pafah1b2",mouse T-cells,"concentration not given, 4 h, treated in situ",relative to: DMSO,activity ratio,1.61
CC[C@H](C)[C@H](NC(=O)[C@H](CCCNC(=N)N)NC(=O)[C@H](CCCNC(=N)N)NC(=O)[C@H](CC(C)C)NC(=O)[C@H](Cc1ccccc1)NC(=O)CNC(=O)CNC(=O)[C@@H](N)Cc1ccc(O)cc1)C(=O)N[C@@H](CCCNC(=N)N)C(=O)N1CCC[C@H]1C(=O)N[C@@H](CCCCN)C(=O)N[C@@H](CC(C)C)C(=O)N[C@@H](CCCCN)C(=O)O,"Probable G-protein coupled receptor 139 (GPR139, Homo sapiens, UniProt Q6DWJ6)","G protein activation, agonist, BRET, item: Gα13",HEK-293T/17,40 µM,relative to: GαoA response,Emax,5.99%
CCCCC/C=C\C/C=C\C/C=C\C/C=C\CCCC(=O)NCCc1ccc(O)c(O)c1,"Transient receptor potential cation channel subfamily V member 1 (Trpv1, Mus musculus, UniProt Q704Y3, D577E)","ion current, agonist, whole-cell patch clamp",,D577E,,Hill coefficient,1.72 ± 0.61
COc1ccc(NC(=S)NCCN2CCC(C)CC2)cc1Cl,"uncharacterized protein (Apis mellifera, UniProt A0A7M6W5G5)","enzyme activity, inhibitor, Ellman",,"up to 1000 µM, pH 7.4, 30 °C, added: 1 mM acetylthiocholine",,IC50,inactive
O=C1NC2(CC2)COc2ncc(F)cc2[C@H]2COCCN2c2ccn3ncc1c3n2,,,"Sprague-Dawley rat, female, liver","oral, 20 mg/kg/day, 4 weeks dosing, end of recovery",,organ-to-body weight ratio,2.98 ± 0.087%
C[C@]1(COC(=O)c2ccccc2O)[C@H](C(=O)O)N2C(=O)/C(=C/c3ccccn3)[C@H]2S1(=O)=O,"Beta-lactamase (blaOXA-33, Acinetobacter baumannii, UniProt Q8RLA6)",inhibitor,,,,kinact,0.027 ± 0.002 s⁻¹
CCOC(=O)[C@@H]1Cc2c(cc([N+](=O)[O-])cc2[N+](=O)[O-])[C@H](O)[C@]12C(=O)Nc1ccc(Br)cc12,PAK2,"binding, competition with immobilised ligand",,0.1 µM,,remaining binding,85%
CON(C(=O)c1cn(C)nc1C(F)F)C(C)Cc1c(Cl)cc(Cl)cc1Cl (stereo not drawn),"SDHD/SDHC/SDHB (Sus scrofa, UniProt A5GZW8+D0VWV4+Q007T0)","enzyme activity, inhibitor, DCIP reduction",pig,"0.3 µM, added: DCIP 5 µM",,reaction velocity,0.00144 µM/s and 0.0014 µM/s and 0.00138 µM/s
COc1ccccc1-c1n[nH]c2nc(NC3CCN(C(=O)Cc4ccc(F)cc4F)CC3)ncc12,,"bead binding, competition bead pull-down, item: LINJ.30.2340",Leishmania donovani axenic amastigote extract,10 µM,relative to: vehicle,relative abundance,1.04
C[C@H](NCc1ccc(-c2ccc(C(F)(F)F)cc2)cc1)C(N)=O,"Metabotropic glutamate receptor 5 (GRM5, Homo sapiens, UniProt P41594)",radioligand binding,,"1 µM, added: 0.03 µM [3H]quisqualic acid",,inhibition,14%
CN(C)[C@H]1C[C@@]23CC[C@@]4(O2)C(=CC[C@]2(C)[C@@H](c5ccc6ccncc6c5)CC[C@H]24)C=C3[C@@H](O)[C@@H]1O,PAK2,"probe labelling, inhibitor, KiNativ ATP probe MS",native lysate,0.1 µM,,inhibition,10.3%
CC(C)[C@H]1NC(=O)C[C@H]2/C=C/CCSSC[C@@H](NC1=O)C(=O)N[C@H](Cc1cccc3ccccc13)C(=O)NCC(=O)O2,"Hepatocyte growth factor receptor (MET, Homo sapiens, UniProt P08581)","enzyme activity, inhibitor",,10 µM,,inhibition,12.6%
CCc1nnc(-c2c(OC)cc(-c3cnc4cc(-c5cnn(C)c5)ccn34)cc2OC)o1,"Endothelin-1 receptor (EDNRA, Homo sapiens, UniProt P25101)","agonist radioligand, radioligand binding",,"10 µM, SafetyScreen44 ETA mean",lower = stronger displacement,remaining binding,96.2%
COCC1CCCCN1C(=O)n1cc(C(O)(c2ccccc2)c2ccccc2)nn1 (stereo not drawn),"Platelet-activating factor acetylhydrolase 2, cytoplasmic (Mus musculus, UniProt Q8VDG7)","probe labelling, inhibitor, competitive ABPP-SILAC",mouse T cells,"concentration not given, 4 h, protein level","relative to: treated over DMSO cells, lower = stronger inhibition",SILAC activity ratio,1.27
C#CCCCCOc1ccc2c(c1)CCCN2C(=O)CCl,"Endoplasmic reticulum-Golgi intermediate compartment protein 3 (ERGIC3, Homo sapiens, UniProt Q9Y282)","mass spectrometry profiling, item: ERGIC3",H460 cell lysate,"100 µM over 10 µM, UniProt Q9Y282",relative to: high over low concentration,reactivity ratio,1.33
